{"data": "Results gathered from unrelated publications", "note": "Compare with care: the assays were run in different laboratories. ± gives the spread as reported."}
{"Compound": "Cn1cc(-c2ccc(-c3cncc(Cl)c3N3CCC4(CCNC4=O)CC3)cc2)cn1", "tested on": "COLO 205", "assay": "gene expression, microarray, measured: LSS mRNA", "setting": "concentration not given, 2 h", "scale": "baseline: untreated cells", "quantity": "log2 fold change", "result": -2.15}
{"Compound": "Cc1cc([C@H]2C[C@H]3[C@@H](CF)SC(N)=N[C@@]3(c3ccc(F)cc3F)CO2)on1", "assay": "measured: Aβx-42", "system": "Mus musculus wild-type, brain", "setting": "subcutaneous, 100 mg/kg, 7 h", "quantity": "Aβ42 level", "result": "0.47 ng/g"}
{"Compound": "C[C@@H](Nc1cc(F)cc(F)c1)c1cc(C(=O)N(C)C)cc2c(=O)cc(N3CCOCC3)oc12", "assay": "immunohistochemistry, measured: phospho-PRAS40", "system": "human, tumor biopsy", "setting": "oral, 120 mg twice daily continuous, 360 h after first dose", "scale": "baseline: baseline, direction not given", "quantity": "pPRAS40 H-score change", "result": "-45%"}
{"Compound": "NCC(=O)Nc1cncc(-c2nn3c(=O)cc(N4CCNCC4)nc3s2)c1", "assay": "ADP-induced platelet aggregation, light transmission aggregometry", "system": "human, stable CAD on aspirin, platelets ex vivo", "setting": "subcutaneous, 0.075 mg/kg, 360 min post-dose, together with: ADP 20 µM", "quantity": "median inhibition", "result": "9.05%"}
{"Compound": "Cc1ccc(NC(=O)C2(c3ccc4c(c3)OC(F)(F)O4)CC2)nc1-c1cccc(C(=O)O)c1", "system": "isolated rat colon", "setting": "1 nM to 10 µM", "quantity": "contraction amplitude", "result": "no effect"}
{"Compound": "O=C(O)CNC(=O)Cc1ccccc1", "system": "ventricular cardiomyocytes, C57BL/6 mouse", "setting": "dose not given, 0.46 s", "quantity": "sarcomere length", "result": "1.7 µm"}
{"Compound": "COc1cc(O)c2c(c1)C(=O)c1cc(C)cc(O)c1C2=O", "tested on": "HK-2 co-cultured with HepaRG", "assay": "MTT", "setting": "266.67 µM, 48 h", "scale": "baseline: untreated control", "quantity": "viability", "result": "28.8 ± 3.98%"}
{"Compound": "CN[C@@H]1COc2c(S(=O)(=O)NC(=O)Nc3c4c(cc5c3CCC5)CCC4)cnn2C1", "assay": "measured: IL-1β", "system": "human participants, whole blood ex vivo", "setting": "900 mg twice daily, multiple doses, 144 h, together with: LPS/ATP", "scale": "baseline: baseline", "quantity": "inhibition", "result": "99.4%"}
{"Compound": "CC(C)NCC(O)c1ccc(O)c(O)c1 (centres unmarked)", "system": "ventricular cardiomyocytes, C57BL/6 mouse", "setting": "dose not given, 0.436 s", "quantity": "sarcomere length", "result": "1.72 µm"}
{"Compound": "N=C(N)NCCC[C@H](NC(=O)[C@H](CCCNC(=N)N)NC(=O)[C@H](CCCCN)NC(=O)[C@H](CCC(N)=O)NC(=O)[C@H](CCCCN)NC(=O)[C@H](Cc1ccc(O)cc1)NC(=O)[C@@H](N)CCCCN)C(=O)N[C@@H](CO)C(=O)N[C@@H](Cc1ccc(O)cc1)C(=O)N[C@@H](CCCCN)C(=O)O", "system": "human, dentin hypersensitivity patients", "setting": "topical to tooth, 10 µg/tooth repeated, day 36, phase 1/2a trial, higher-VAS tooth, together with: cold water at 4°C", "scale": "direction not given", "quantity": "change in VAS score", "result": "-23.2 ± 19.4 mm"}
{"Compound": "COc1cc2c(c(OC)c1OC)C(=O)c1c(cc(C)c(O)c1OC)C2=O", "tested on": "HK-2 co-cultured with HepaRG", "assay": "MTT", "setting": "66.67 µM, 48 h", "scale": "baseline: untreated control", "quantity": "viability", "result": "40.6 ± 6.6%"}
{"Compound": "CC#CC(=O)N[C@H]1CCCN(c2c(F)cc(C(N)=O)c3[nH]c(C)c(C)c23)C1", "system": "healthy volunteers, single ascending dose, serum", "setting": "3 mg, day 10", "quantity": "change from baseline in serum IgM", "result": "83.3 mg/L"}
{"Compound": "OC(CCN1CCCCC1)(c1ccccc1)C1CC2C=CC1C2 (centres unmarked)", "assay": "resting-state EEG", "system": "healthy elderly humans", "setting": "oral, 2 mg, eyes open, LS mean", "quantity": "power, Delta EEG, Pz-O1", "result": "7 µV²"}
{"Compound": "CCN1CCN(Cc2ccc(Nc3ncc(F)c(-c4cc(F)c5nc6n(c5c4)[C@H](C)CCC6)n3)nc2)CC1", "system": "human advanced solid tumours", "setting": "400 mg, phase Ia monotherapy RECIST 1.1", "quantity": "disease control rate", "result": "100%"}
{"Compound": "CC(C)C[C@H](NC(=O)C[C@H](O)[C@H](CC(C)C)NC(=O)[C@H](Cc1c[nH]cn1)NC(=O)CNC(=O)[C@@H](NC(=O)[C@H](C)NC(=O)[C@H](Cc1c[nH]c2ccccc12)NC(=O)[C@H](CCC(N)=O)NC(=O)[C@@H](Cc1ccccc1)NC(=O)COCCOCCNC(=O)CCC(C(=O)O)N1CCN(CC(=O)O)CCN(CC(=O)O)CCN(CC(=O)O)CC1)C(C)C)C(N)=O (some centres unmarked) [lutetium-177 labelled]", "system": "female BALB/c nu/nu mice, skin", "setting": "intravenous, 100 pmol, 24 h, together with: PA 300 µg", "quantity": "tissue uptake", "result": "0.05 ± 0.04 %ID/g"}
{"Compound": "O=C(COc1ccc(Cl)cc1)NC12CC(c3nnc([C@H]4C[C@@H](OC(F)(F)F)C4)o3)(C1)C2", "assay": "measured: ATF4", "system": "PBMC ex vivo stimulated, human ALS patients", "setting": "100 mg, D7 predose", "scale": "baseline: baseline", "quantity": "protein level change", "result": "-68.6%"}
{"Compound": "c1ccc(-c2n[nH]cc2-c2ccnc3ccccc23)nc1", "assay": "kinase binding, competitor, MIB/MS competition, measured: RIM8", "system": "Candida albicans cell lysate", "setting": "1 µM", "scale": "baseline: DMSO", "quantity": "log2 fold change", "result": 1.48}
{"note": "Repeated from above:"}
{"Compound": "NCC(=O)Nc1cncc(-c2nn3c(=O)cc(N4CCNCC4)nc3s2)c1", "assay": "ADP-induced platelet aggregation, light transmission aggregometry", "system": "human, stable CAD on aspirin, platelets ex vivo", "setting": "subcutaneous, 0.075 mg/kg, 360 min post-dose, together with: ADP 20 µM", "quantity": "median inhibition", "result": "9.05%"}
{"Compound": "O=C(COc1ccc(Cl)cc1)NC12CC(c3nnc([C@H]4C[C@@H](OC(F)(F)F)C4)o3)(C1)C2", "assay": "measured: ATF4", "system": "PBMC ex vivo stimulated, human ALS patients", "setting": "100 mg, D7 predose", "scale": "baseline: baseline", "quantity": "protein level change", "result": "-68.6%"}
